Measurements from different studies.
Parts stem from different laboratories: compare values within a part only. Changes are numbered by the printed parent chain.

Set 1
Target: CCNE2, cyclin fold, Cln2 fusion (human)
Method: yeast growth competition, sequencing
Matrix: yeast
Setting: weak parent motif
Relative to: not given
Reading: higher = stronger binding
Starting sequence: RB1 docking peptide (human); PKPLKKLRFDIEG; partner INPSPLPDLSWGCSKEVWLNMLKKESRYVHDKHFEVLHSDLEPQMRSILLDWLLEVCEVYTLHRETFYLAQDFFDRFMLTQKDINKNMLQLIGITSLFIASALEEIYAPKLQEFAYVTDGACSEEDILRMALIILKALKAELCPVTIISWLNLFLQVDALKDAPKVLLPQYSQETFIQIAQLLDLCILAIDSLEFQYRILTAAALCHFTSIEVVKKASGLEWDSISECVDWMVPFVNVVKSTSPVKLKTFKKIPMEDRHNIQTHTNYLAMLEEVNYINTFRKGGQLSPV
Change	normalised enrichment score
P3F	0.24
G13L	0.335
F9H	0.332
P1Y	0.299
R8F	0.0527
K5C	0.0274
P3G	0.927
I11E	0.714
K6R	0.739
L4C	0.887
P1D	1.75
E12A	-0.181
L7C	1.09
D10G	1.98
D10A	1.29
F9N	1.27
K2S	0.979
K5R F9L	-0.0392
R8E	-0.133
L7A	1.19
L7T	0.147
F9D	0.194
E12F	1.05
I11L	1.19
G13K	1.18

Set 2
Target: MAFG, bZIP domain (human)
Method: DHFR protein complementation
Matrix: yeast
Setting: single substitutions, most at no-binding floor
Relative to: wild-type JUN-FOS pair
Reading: higher = stronger binding
Starting sequence: JUN, bZIP domain (human); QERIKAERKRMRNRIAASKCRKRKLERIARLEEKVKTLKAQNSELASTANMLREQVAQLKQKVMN; partner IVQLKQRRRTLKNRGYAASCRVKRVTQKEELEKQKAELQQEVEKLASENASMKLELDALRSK
Change	binding fitness
E44P	-1.55 natural log
E33P	-1.49 natural log
N42V	-1.14 natural log
L52E	-1.47 natural log
A40L	-1.47 natural log
R53F	-1.47 natural log
E33H	-1.41 natural log
Q55S	-1.32 natural log
A49E	-1.49 natural log
A46D	-1.53 natural log
A57T	-1.39 natural log
V56A	-1.5 natural log
K34R	-1.53 natural log
R53Q	-1.46 natural log
E33G	-1.37 natural log
A46K	-1.5 natural log

Set 3
Target: ABI1, truncated, D143A, DHFR fusion (Arabidopsis thaliana)
Method: DHFR PCA, deep sequencing
Matrix: yeast
Setting: methotrexate growth selection, single substitutions
With: (+)-ABA 0 µM
Relative to: wild-type fitted maximum
Reading: higher = stronger binding
Starting sequence: PYL1, truncated, DHFR fusion (Arabidopsis thaliana); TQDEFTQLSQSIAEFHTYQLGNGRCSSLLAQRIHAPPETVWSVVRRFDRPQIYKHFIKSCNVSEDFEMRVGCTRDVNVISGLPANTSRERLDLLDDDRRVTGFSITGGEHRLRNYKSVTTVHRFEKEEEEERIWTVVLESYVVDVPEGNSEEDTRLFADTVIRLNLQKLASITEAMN
Change	relative binding score
H55V	37.1%
T173N	0.45%
V145Q	-12.6%
H16L	0.587%
K168N	57.2%
R163A	28.7%
E64W	-3.18%
I52Q	7.06%
Q19G	4.72%
K168V	-7.14%
V43P	-5.56%
L91F	3.28%
N149K	10.3%
S117V	1.42%
I57K	-1.89%
V44D	-2.67%

Set 4
Target: CEP164, C-terminal peptide (human)
Method: DHFR complementation, deep sequencing
Matrix: yeast
Setting: single substitutions, model-inferred values
Relative to: wild type
Reading: higher = weaker binding
Starting sequence: PDZK1, PDZ domain 2 (human); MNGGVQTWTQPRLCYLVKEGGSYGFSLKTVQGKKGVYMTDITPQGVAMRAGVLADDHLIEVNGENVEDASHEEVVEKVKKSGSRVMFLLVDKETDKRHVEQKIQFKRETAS; partner HNRVKVYRF
Change	binding free energy change
G35S	1.33 kcal/mol
T9D	0.00628 kcal/mol
M1Q	-0.225 kcal/mol
A50S	0.209 kcal/mol
E67W	0.154 kcal/mol
V36L	0.155 kcal/mol
D95Y	-0.408 kcal/mol
K92S	-0.0157 kcal/mol
G63F	0.393 kcal/mol
T109N	-0.164 kcal/mol
N2T	-0.145 kcal/mol
K79G	0.924 kcal/mol
G4S	0.00911 kcal/mol
H98L	-0.0415 kcal/mol
V75M	1.73 kcal/mol
H98K	-0.0683 kcal/mol

Set 5
Target: Interferon regulatory factor 7, full length, phosphomimetic (IRF7, Homo sapiens, UniProt Q92985, residues 1-503, S101K/S471D/S472D/S475D/S476D/S477D/S483D/S484D/S487D)
Method: protein-binding microarray
Molecule type: double-stranded DNA, one strand shown
Matrix: in vitro
Concentration: 250 nM
Setting: 60-bp whole probe
With: salmon DNA 0.4 mg/ml
Relative to: random background probes
Reading: higher = stronger binding
Shared flanks, not repeated: GCCTAGCAC … GTCTTGATTCGCTTGACGCTGCTG
Target sequence (chain): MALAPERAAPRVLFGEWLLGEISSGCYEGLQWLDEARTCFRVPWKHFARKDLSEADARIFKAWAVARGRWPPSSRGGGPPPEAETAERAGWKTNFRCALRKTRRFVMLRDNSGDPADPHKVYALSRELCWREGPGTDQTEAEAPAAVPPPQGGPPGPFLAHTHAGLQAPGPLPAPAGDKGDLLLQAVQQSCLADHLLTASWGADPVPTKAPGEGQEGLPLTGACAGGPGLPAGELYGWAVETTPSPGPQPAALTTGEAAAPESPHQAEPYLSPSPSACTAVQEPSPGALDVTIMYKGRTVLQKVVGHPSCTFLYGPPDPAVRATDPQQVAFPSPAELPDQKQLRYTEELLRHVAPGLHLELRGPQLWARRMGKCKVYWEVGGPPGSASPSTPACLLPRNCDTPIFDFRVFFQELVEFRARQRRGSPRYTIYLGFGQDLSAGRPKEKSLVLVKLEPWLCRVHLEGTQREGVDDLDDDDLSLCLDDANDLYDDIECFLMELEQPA
Strand	log fluorescence [z-score]
AACGGACTGCTTCTCCTGACGTGCTAG	-0.329
TTAGGTTTCCTTCTCCTTGAGTGCTAG	2.66
TAGAGTAGCTTTCTGAGGGCGTGCTAG	-0.814
TTAGGTTTCCTACTGTTTTAGTGCTAG	1.49
GACGGTCTCGGTTTCGGGTCGTGCTAG	10.4
TTAGAACTGAGTTTCGATCAGTGCTAG	3.25
GACGATCTCCTTCTCCTGACGTGCTAG	0.181
GACGGTATCGGTCTCGGGGCGTGCTAG	0.359
GACGAACTGAGATTGGAGACGTGCTAG	-0.324
TTAGGTATCGACATTCGGTTAGTGCTA	1.13
GACGGTATCAGACTGGGGACGTGCTAG	-0.24
TTAGATATCATTCTCGATTAGTGCTAG	1.12
TCAGGTATCCTACTGCTTTAGTGCTAG	0.0565

A few entries again (set 3):
Change	relative binding score
H16L	0.587%
K168N	57.2%
R163A	28.7%
E64W	-3.18%
I52Q	7.06%
Q19G	4.72%
K168V	-7.14%
V43P	-5.56%
